Published values gathered from unrelated publications.
Protocols differ between the studies behind these lines. Values joined by “and” are separate records of one study, mostly repeats; a detail may differ.
UCHL1: Ubiquitin carboxyl-terminal hydrolase isozyme L1 (UCHL1, Homo sapiens, UniProt P09936)
UniProt P09936, sequence (whole entry, looked up): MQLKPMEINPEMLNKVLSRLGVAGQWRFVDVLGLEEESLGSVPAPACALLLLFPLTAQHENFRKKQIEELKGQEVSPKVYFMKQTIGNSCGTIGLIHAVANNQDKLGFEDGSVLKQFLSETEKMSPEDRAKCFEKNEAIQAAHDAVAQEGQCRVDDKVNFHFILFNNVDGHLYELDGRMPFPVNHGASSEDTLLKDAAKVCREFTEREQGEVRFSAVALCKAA

For `O=C1NC(c2ccccc2)(c2ccccc2)C(=O)N1Cc1cn(-c2c3ccccc3nc3ccccc23)nn1`, the growth percentage was 104% (HCC 2998; NCI60 single-dose screen; 10 µM).
The GI50 of `Cn1cncc1C1=CN(c2ncnc3[nH]cnc23)CCS1` is reported as 32.4 µM (HCC 2998; colon cancer).
For `CCCCN1CCN(c2ccc3[nH]c(-c4ccc5[nH]c(-c6cc(OC)c(OC)c(OC)c6)nc5c4)nc3c2)CC1`, the growth percent was 100% (HCC 2998; SRB; 10 µM, 48 h).
The cell growth of `CSc1nc(-c2ccc(Cl)cc2)c2c(NC(=O)c3ccccc3)nnc-2[nH]1` is reported as 107% (HCC 2998; SRB; 10 µM, NCI60 single-dose screen, colon cancer; reference: untreated).
`O=C1NCCc2[nH]c(-c3ccncc3)cc21` gave an IC50 of greater than 10 µM (HCC 2998; MTS; colon cancer).
`C#C[C@@]1(O)[C@@H](CO)O[C@@H](n2cc(I)c3c(N)ncnc32)[C@@H]1O` has a TGI of 2.6 µM and 3.47 µM (HCC 2998; SRB; NCI-60 screen).
For `CN1C(=O)C(=C(C#N)C(=O)NCc2ccc(Cl)cc2)c2ccccc21`, the labelling was 43.6% (UCHL1; covalent, intact protein LC-MS; 12.5 µM).
For `O=C1NC(c2ccccc2)(c2ccccc2)C(=O)N1Cc1cn(-c2cc3ccccc3oc2=O)nn1`, the growth percentage was 107% (HCC 2998; NCI60 single-dose screen; 10 µM).
`Cc1cc(C)n(C(=S)[S][Au][PH](CCCCCC[PH]([Au][S]C(=S)n2nc(C)cc2C)(c2ccccc2)c2ccccc2)(c2ccccc2)c2ccccc2)n1` has a log10 TGI of -6.1 (HCC 2998; cell growth, NCI-60 screen; colon cancer).
For `CCCN1CCN(c2ccc3nc(-c4ccc5nc(-c6cc(OC)ccc6OC)[nH]c5c4)[nH]c3c2)CC1`, the growth percent was 113% (HCC 2998; SRB; 10 µM, 48 h).
With `C#C[C@@]1(O)[C@@H](CO)O[C@@H](n2ccc3c(N)ncnc32)[C@@H]1O` the TGI was 3.12 µM (HCC 2998; SRB; NCI-60 screen).
The labelling of `CC(Cl)C(=O)Nc1ccc(C2CC(=O)NC(=O)N2)cc1` (stereo not drawn) is reported as 9.1% (UCHL1; covalent, intact protein LC-MS; 12.5 µM).
With `O=c1ccn(Cc2cn(-c3c4ccccc4nc4ccccc34)nn2)c(=O)[nH]1` the growth percentage was 90.6% (HCC 2998; NCI60 single-dose screen; 10 µM).
With `CCCCN1CCN(c2ccc3[nH]c(-c4ccc5[nH]c(-c6ccc(C(F)(F)F)cc6)nc5c4)nc3c2)CC1` the growth percent was -84% (HCC 2998; SRB; 10 µM, 48 h).
`Cc1cc(-c2ccccc2)n(-c2nc(-c3ccc(Cl)cc3)c3c(NC(=O)c4ccccc4)nnc-3[nH]2)n1` has a cell growth of 103% (HCC 2998; SRB; 10 µM, NCI60 single-dose screen, colon cancer; reference: untreated).
`CCCCN1CCN(c2ccc3[nH]c(-c4ccc5[nH]c(-c6ccc(OCC)cc6)nc5c4)nc3c2)CC1` gave a growth percent of 90.3% (HCC 2998; SRB; 10 µM, 48 h).
The cell growth of `NNc1nc(-c2ccc(Cl)cc2)c2c(NC(=O)c3ccccc3)nnc-2[nH]1` is reported as 107% (HCC 2998; SRB; 10 µM, NCI60 single-dose screen, colon cancer; reference: untreated).
For `O=C(Cn1ccnc1[N+](=O)[O-])NCc1ccccc1`, the inhibition was 20.4% (Trypanosoma cruzi; reporter translation, Renilla luciferase mRNA translation; cell-free extract; 40 µM; reference: DMSO).
`O=C(Nc1nnc2n3c(Cc4ccccc4)n[nH]c3nc(-c3ccc(Cl)cc3)c1-2)c1ccccc1` gave a cell growth of 108% (HCC 2998; SRB; 10 µM, NCI60 single-dose screen, colon cancer; reference: untreated).
For `CCOc1ccc(-c2nc3cc(-c4nc5cc(N6CCN(C)CC6)ccc5[nH]4)ccc3[nH]2)cc1OCC`, the growth percent was -15.9% (HCC 2998; SRB; 10 µM, 48 h).
The cell growth of `Cc1cc(=O)[nH]n1-c1nc(-c2ccc(Cl)cc2)c2c(NC(=O)c3ccccc3)nnc-2[nH]1` is reported as 113% (HCC 2998; SRB; 10 µM, NCI60 single-dose screen, colon cancer; reference: untreated).
For `Cc1cc(=O)[nH]c(=O)n1Cc1cn(-c2c3ccccc3nc3ccccc23)nn1`, the growth percentage was 62.5% (HCC 2998; NCI60 single-dose screen; 10 µM).
The cell growth of `O=C(Nc1nnc2n3c(=S)[nH][nH]c3nc(-c3ccc(Cl)cc3)c1-2)c1ccccc1` is reported as 109% (HCC 2998; SRB; 10 µM, NCI60 single-dose screen, colon cancer; reference: untreated).
`COc1ccc(OC)c(-c2nc3ccc(-c4nc5ccc(N6CCN(C)CC6)cc5[nH]4)cc3[nH]2)c1` gave a growth percent of 102% (HCC 2998; SRB; 10 µM, 48 h).
